Measurements pooled from the literature.
A part holds a random share of what one study measured. Values joined by “and” are separate records of one study, mostly repeats; a detail may differ.
Chain of UniProt P07949 (whole entry, unmodified, looked up): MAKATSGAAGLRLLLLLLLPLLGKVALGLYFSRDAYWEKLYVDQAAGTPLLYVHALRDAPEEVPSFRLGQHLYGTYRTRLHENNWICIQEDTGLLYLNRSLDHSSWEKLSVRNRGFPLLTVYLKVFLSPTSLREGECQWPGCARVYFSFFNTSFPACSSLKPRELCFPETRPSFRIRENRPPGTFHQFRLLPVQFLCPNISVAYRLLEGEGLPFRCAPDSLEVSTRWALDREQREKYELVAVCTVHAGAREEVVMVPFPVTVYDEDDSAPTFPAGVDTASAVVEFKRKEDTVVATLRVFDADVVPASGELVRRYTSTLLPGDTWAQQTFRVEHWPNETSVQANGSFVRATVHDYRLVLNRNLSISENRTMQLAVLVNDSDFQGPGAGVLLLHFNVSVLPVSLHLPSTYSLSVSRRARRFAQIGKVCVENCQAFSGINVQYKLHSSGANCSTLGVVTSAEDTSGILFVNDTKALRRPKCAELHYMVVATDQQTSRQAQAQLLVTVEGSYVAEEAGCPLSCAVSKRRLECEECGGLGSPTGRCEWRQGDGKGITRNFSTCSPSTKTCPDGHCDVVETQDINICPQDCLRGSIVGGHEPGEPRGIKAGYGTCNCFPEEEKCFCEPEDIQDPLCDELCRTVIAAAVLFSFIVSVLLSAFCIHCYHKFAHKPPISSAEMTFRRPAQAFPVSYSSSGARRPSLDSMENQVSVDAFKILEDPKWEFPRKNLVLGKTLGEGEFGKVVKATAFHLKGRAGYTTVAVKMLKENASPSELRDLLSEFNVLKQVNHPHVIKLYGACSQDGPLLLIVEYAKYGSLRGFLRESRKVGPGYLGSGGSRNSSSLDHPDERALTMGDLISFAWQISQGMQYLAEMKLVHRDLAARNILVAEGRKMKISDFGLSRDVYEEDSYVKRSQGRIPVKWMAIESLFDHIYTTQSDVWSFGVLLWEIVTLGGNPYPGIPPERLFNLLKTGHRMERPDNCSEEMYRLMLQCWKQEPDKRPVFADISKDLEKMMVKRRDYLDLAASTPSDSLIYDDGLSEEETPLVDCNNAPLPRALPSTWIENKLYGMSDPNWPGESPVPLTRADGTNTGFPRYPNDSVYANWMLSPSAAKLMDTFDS
Chain of UniProt P06493 (whole entry, looked up): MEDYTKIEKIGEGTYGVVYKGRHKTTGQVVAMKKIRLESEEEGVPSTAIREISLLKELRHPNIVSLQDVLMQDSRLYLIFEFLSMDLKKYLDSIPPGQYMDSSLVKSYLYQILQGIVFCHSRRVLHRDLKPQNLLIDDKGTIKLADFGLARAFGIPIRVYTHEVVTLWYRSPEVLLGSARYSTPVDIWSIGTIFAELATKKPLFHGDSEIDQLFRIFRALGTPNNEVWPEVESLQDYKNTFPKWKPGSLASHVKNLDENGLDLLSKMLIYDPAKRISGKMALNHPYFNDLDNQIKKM
Chain of UniProt Q96J92 (whole entry, looked up): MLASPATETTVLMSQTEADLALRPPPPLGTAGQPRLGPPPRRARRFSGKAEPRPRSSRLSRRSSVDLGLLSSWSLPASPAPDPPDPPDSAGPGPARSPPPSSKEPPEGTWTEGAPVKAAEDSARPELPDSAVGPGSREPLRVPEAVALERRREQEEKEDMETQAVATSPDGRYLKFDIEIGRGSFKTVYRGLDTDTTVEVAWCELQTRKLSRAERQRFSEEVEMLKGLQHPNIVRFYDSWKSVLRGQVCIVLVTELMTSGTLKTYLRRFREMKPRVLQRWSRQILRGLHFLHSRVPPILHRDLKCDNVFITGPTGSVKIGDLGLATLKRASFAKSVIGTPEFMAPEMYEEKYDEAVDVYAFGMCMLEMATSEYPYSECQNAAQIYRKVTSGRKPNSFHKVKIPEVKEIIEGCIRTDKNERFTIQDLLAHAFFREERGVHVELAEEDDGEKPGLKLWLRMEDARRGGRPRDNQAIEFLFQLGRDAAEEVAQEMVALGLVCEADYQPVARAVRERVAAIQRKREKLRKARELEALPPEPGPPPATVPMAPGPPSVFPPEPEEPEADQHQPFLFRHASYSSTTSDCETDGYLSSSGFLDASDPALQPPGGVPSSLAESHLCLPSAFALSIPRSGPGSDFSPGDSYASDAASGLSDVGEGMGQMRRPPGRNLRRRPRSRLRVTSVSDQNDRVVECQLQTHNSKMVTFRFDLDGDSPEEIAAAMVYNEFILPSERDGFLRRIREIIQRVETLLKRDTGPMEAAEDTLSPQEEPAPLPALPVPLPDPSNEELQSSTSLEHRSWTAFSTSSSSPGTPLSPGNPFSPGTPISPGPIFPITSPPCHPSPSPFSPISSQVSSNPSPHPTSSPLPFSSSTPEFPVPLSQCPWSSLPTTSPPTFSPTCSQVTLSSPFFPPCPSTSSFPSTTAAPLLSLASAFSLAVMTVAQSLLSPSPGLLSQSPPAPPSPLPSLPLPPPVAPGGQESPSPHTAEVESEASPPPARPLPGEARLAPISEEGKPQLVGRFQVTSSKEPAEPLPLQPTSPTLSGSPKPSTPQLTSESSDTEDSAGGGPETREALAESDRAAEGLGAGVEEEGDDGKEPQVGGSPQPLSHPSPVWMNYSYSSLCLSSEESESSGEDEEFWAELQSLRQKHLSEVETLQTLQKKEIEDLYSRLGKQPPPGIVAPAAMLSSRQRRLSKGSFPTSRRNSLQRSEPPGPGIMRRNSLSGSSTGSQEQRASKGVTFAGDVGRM
Chain of UniProt O75676 (whole entry, looked up): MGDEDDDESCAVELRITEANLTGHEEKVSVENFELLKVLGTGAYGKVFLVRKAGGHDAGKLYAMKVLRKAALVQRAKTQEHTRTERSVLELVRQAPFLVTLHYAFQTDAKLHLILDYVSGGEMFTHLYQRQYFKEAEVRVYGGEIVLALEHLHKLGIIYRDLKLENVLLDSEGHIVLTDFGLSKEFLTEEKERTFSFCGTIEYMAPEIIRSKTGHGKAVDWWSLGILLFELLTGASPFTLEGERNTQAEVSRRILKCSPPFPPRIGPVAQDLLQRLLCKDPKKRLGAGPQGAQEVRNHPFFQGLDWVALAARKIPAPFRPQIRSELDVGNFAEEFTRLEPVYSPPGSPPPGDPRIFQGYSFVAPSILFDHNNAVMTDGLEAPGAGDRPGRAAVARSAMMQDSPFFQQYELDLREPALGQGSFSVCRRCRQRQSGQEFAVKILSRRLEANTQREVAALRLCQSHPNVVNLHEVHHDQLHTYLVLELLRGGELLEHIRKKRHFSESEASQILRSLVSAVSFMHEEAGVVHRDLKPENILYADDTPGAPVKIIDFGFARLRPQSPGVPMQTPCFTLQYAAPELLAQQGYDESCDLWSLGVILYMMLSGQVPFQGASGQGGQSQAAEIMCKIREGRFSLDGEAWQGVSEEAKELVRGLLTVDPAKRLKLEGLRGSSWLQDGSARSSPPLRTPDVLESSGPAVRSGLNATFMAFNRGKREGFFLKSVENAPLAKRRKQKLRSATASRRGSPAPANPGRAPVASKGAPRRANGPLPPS
Chain of UniProt P28482 (whole entry, looked up): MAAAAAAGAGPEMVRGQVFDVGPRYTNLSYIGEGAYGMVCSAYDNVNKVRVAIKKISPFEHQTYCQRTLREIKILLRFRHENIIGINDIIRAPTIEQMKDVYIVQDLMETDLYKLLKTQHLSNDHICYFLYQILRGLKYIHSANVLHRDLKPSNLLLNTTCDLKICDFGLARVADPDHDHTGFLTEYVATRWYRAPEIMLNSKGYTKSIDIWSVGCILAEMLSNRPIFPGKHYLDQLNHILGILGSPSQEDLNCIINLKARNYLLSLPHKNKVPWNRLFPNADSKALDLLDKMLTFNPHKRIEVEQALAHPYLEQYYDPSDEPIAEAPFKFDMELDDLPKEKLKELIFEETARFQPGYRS
Chain of UniProt P51955 (whole entry, looked up): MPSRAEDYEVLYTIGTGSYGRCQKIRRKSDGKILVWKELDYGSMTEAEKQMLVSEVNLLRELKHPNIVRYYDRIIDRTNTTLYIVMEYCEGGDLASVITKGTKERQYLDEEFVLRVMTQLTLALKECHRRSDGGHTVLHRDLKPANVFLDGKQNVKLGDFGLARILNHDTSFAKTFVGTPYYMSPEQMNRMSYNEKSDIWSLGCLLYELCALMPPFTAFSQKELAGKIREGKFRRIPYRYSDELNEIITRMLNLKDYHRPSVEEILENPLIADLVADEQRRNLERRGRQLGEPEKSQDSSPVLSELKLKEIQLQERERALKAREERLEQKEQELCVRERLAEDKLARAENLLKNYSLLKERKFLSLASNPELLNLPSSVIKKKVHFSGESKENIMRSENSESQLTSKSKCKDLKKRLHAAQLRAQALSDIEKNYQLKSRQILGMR
Chain of UniProt Q9H4B4 (whole entry, looked up): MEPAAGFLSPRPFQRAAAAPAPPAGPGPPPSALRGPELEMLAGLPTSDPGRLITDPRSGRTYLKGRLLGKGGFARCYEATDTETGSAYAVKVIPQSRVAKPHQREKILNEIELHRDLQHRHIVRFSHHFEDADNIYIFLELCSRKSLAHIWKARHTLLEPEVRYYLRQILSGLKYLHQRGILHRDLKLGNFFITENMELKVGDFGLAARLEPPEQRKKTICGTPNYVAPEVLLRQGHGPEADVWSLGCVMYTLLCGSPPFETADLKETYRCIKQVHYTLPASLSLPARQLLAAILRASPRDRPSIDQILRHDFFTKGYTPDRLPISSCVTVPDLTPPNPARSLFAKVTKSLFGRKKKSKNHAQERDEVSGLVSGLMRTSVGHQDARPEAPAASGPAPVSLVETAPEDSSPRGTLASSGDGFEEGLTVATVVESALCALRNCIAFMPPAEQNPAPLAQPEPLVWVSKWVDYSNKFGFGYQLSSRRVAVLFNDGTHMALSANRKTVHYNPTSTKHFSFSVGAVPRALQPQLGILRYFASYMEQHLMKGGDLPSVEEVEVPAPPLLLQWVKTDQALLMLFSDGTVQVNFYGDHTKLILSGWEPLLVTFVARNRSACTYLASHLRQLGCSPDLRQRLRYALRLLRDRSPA

Study 1
Compound: CN1CCN(C(=O)c2ccc(NC(=O)Nc3ccc(N(C)c4ccnc(Nc5ccc(CS(C)(=O)=O)cc5)n4)cc3)cc2)CC1
The remaining binding was 0.2% (RET (Homo sapiens, UniProt P07949, M918T); binding; 1 µM).
It gave 0% for remaining binding (RET (Homo sapiens, UniProt P07949); binding, competition with immobilised ligand; 1 µM).
The remaining binding was 100% (PLK1 (Homo sapiens, UniProt P53350); binding; 1 µM).
FLT3 ITD; KINOMEscan; 1000 nM; reference: control — remaining binding: 0.3%.
LIM domain kinase 2 (LIMK2, Homo sapiens, UniProt P53671); binding, competition with immobilised ligand; 1 µM — remaining binding: 43%.
It gave 70% for remaining binding (PKN1 (Homo sapiens, UniProt Q16512); binding; 1 µM).

Study 2
SMILES: Cn1sc(=O)n(Cc2ccccc2)c1=O
Observed: enzyme activity
Action: inhibitor
Concentration: 0.5 µM
Reference: control
For MET (Homo sapiens, UniProt P08581): remaining activity read 64.2%.
PLK3 (Homo sapiens, UniProt Q9H4B4) — remaining activity: 99.1%.
MAPK11 (Homo sapiens, UniProt Q15759) — remaining activity: 97.2%.
Cyclin-dependent kinase 9, with cyclin K (CDK9, Homo sapiens, UniProt P50750) — remaining activity: 97.2%.
It gave 99.1% for remaining activity (CLK4 (Homo sapiens, UniProt Q9HAZ1)).
MAPK1 (Homo sapiens, UniProt P28482) — remaining activity: 93.1%.
It gave 108% for remaining activity (PRKG2 (Homo sapiens, UniProt Q13237)).
For NEK3 (Homo sapiens, UniProt P51956): remaining activity read 89.3%.
It gave 102% for remaining activity (DDR2 (Homo sapiens, UniProt Q16832)).
It gave 98.5% for remaining activity (DCLK2 (Homo sapiens, UniProt Q8N568)).
The remaining activity was 99% (RPS6KA4 (Homo sapiens, UniProt O75676)).
The remaining activity was 99.2% (AKT2 (Homo sapiens, UniProt P31751)).
It gave 99.8% for remaining activity (TXK (Homo sapiens, UniProt P42681)).
For Cyclin-dependent kinase 1, with cyclin A (CDK1, Homo sapiens, UniProt P06493): remaining activity read 104%.

Study 3
SMILES: CCC(=O)N1CCN(c2nc(OC[C@@H]3CCCN3C)nc3c2CCN(c2cccc4cccc(Cl)c24)C3)C[C@@H]1CC#N
Observed: binding
Action: competitor
Method: NanoBRET
Cells: HEK293
KRAS Q61H: GTPase KRas (KRAS, Homo sapiens, UniProt P01116, Q61H)
For GTPase KRas (KRAS, Homo sapiens, UniProt P01116, G12D); 5.08 nM: normalized BRET read 102% and 98.5%.
It gave 99.3% and 94.5% and 111% for normalized BRET (KRAS Q61H; 1.69 nM).
For KRAS Q61H; 5.08 nM: normalized BRET read 95.1% and 96.9% and 103%.
KRAS Q61H; 15.2 nM — normalized BRET: 99% and 99.8% and 92.7%.
KRAS Q61H; 137 nM — normalized BRET: 83.7% and 98.8% and 88.3%.

Study 4
Compound: CC(=O)C1=C(C)N(c2cccc(C(F)(F)F)c2)C(=O)N[C@@H]1c1ccc(C#N)nc1
Concentration: 1 µM
It gave 100% for remaining binding (WNK4 (Homo sapiens, UniProt Q96J92); cell-free assay, competition with immobilised ligand).
The remaining binding was 83.3% (PRKCQ (Homo sapiens, UniProt Q04759); cell-free assay, competition with immobilised ligand).
It gave 91.7% for remaining binding (CDK14 (Homo sapiens, UniProt O94921); cell-free assay, competition with immobilised ligand).
The remaining binding was 85.4% (PRKAA1 (Homo sapiens, UniProt Q13131); cell-free assay, competition with immobilised ligand).
It gave 100% for remaining binding (NEK2 (Homo sapiens, UniProt P51955); cell-free assay, competition with immobilised ligand).
It gave 79.3% for remaining binding (CDC42BPG (Homo sapiens, UniProt Q6DT37); competition binding).
The remaining binding was 56.9% (eIF-2-alpha kinase GCN2, C-terminal kinase domain (EIF2AK4, Homo sapiens, UniProt Q9P2K8, S808G); cell-free assay, competition with immobilised ligand).
The remaining binding was 83.9% (Aurora kinase A (AURKA, Homo sapiens, UniProt O14965); cell-free assay, competition with immobilised ligand).
